# Measurements pooled from the literature.
# Each line is one published result; not all experiments were run side by side. Numbers after ± are the reported error.
SMILES,assay,system,conditions,scale,measurement,result
[11CH3]c1ccc2nc(C3CCC3)n(-c3ccc4[nH]ncc4c3)c2n1,,"standard human adult, spleen",,,absorbed radiation dose,2.4 µSv/MBq
CCCC(CCC)NC(=O)c1ccc(O)c(OC2OC(C(=O)O)C(O)C(O)C2O)c1 (stereo not drawn),LC-MS extracted ion chromatogram,"Sprague-Dawley rat, male and female, pooled plasma","oral, 200 mg/kg, 1 h",,peak area,648000 cps
CC[C@@H](C)N([11CH3])C(=O)c1nc(-c2ccccc2Cl)c2ccccc2n1,,"rhesus monkey male, plasma","intravenous, TSPO preblock",,time to 50% parent radioligand in plasma,9.57 min
N#Cc1cc(C(=O)OCC[18F])c(C(F)(F)F)nc1N1CCN(C(=O)Cc2ccccc2)CC1,dynamic PET,"healthy mouse, brain","intravenous, 11.1 MBq",,peak SUV,1.77 ± 0.27
NCCC(=O)N1Cc2ccccc2-c2c(nnn2-c2nc(N)c3ncn(C4OC(CO)C(O)C4O)c3n2)-c2ccccc21 (mixture of isomers),fluorescence lifetime,methanol,,,fractional contribution τ3,0.4%
Cn1c(=O)oc2ccc(-c3ccc(CC(C#N)NC(=O)C4CNCCCO4)c(F)c3)cc21 (stereo not drawn),item: white blood cells in urine,human volunteers,"60 mg single dose, fasted",,share of subjects with TEAE,0%
CC(C)(O)c1ncc([S@](N)(=O)=NC(=O)Nc2c3c(cc4c2CCC4)CCC3)s1,,"healthy human volunteers, plasma","oral, 600 mg single dose, fasted, spray-dried dispersion",,dose-normalised AUC(0-t),1320 ng·h/mL/mg
C=CC(=O)Nc1cc(Nc2nccc(-c3cn(C4CC4)c4ccccc34)n2)c(OC)cc1NC,LC-RAM/HRMS,"human male, plasma","oral, 110 mg, 24 h",reference: total radioactivity,share of radioactivity,3.23%
CCCC[C@H](NC(=O)[C@H](CC(C)C)N(C)C(=O)CNC(=O)[C@@H](NC(=O)[C@H](Cc1ccccc1)NC(=O)[C@H](CCCCN)NC(=O)[C@@H](N)CC(=O)O)C(C)C)C(N)=O,,anesthetized Gottingen minipig,"subcutaneous, 100 µg/kg",reference: baseline,heart rate,0.48 ± 6.14%
COc1cc(OC)cc(C2=C3C(C)=C(I)C(/C=C/c4c[nH]c5ccc([N+](=O)[O-])cc45)=[N+]3[B-](F)(F)n3c(/C=C/c4c[nH]c5ccc([N+](=O)[O-])cc45)c(I)c(C)c32)c1,,dichloromethane,,,Stokes shift,623 cm⁻¹
N=C(N)NCCC[C@@H]1NC(=O)[C@H](Cc2c[nH]c3ccccc23)NC(=O)[C@@H](CC2CCCCC2)NC(=O)[C@@H]2CCCN2C(=O)[C@@H](NC(=O)CCc2ccccc2)CCCNC1=O,,"C57BL/6J mice, brain","oral, 1 mg/kg, two-compartment model",,apparent total clearance (CL/F),0.75 ng/(min·ng/g)
CC(C)c1cnc(-c2cc(Cl)ccc2F)cc1Nc1ccncc1C(=O)NC(CO)CO,item: Pyrexia,solid tumour patients,"oral, dose not given, phase I monotherapy",,treatment-related serious adverse events,2.4%
CC(C)(C)NCC(SS(=O)(=O)O)c1ccccc1 (stereo not drawn),,"Swiss Webster CFW mouse, female, plasma","intravenous, 15 mg/kg, from 0 h to infinity",,MRT,0.168 h
CCc1cc(Nc2nc(-c3ccc(-n4cnc(C)c4)c(F)c3)cs2)c(C)cc1C,,"human, both sexes, plasma","oral, 400 mg once daily, day 14, multiple dose, geometric mean",,apparent terminal volume (Vz/F),413000 mL
CC(=O)N[C@H](CC(=O)O)C(=O)N[C@H](Cc1c[nH]c2ccccc12)C(=O)N[C@H](Cc1ccccc1)C(=O)N[C@H](CCCCN)C(=O)N[C@H](C)C(=O)N[C@H](Cc1ccccc1)C(=O)N[C@H](Cc1ccc(O)cc1)C(=O)N[C@H](CC(=O)O)C(=O)N[C@H](CCCCN)C(=O)N[C@@H](C(=O)N[C@H](C)C(=O)N[C@H](CCC(=O)O)C(=O)N[C@H](CCCCN)C(=O)N[C@H](Cc1ccccc1)C(=O)N[C@H](CCCCN)C(=O)N[C@H](CCC(=O)O)C(=O)N[C@H](C)C(=O)N[C@H](Cc1ccccc1)C(N)=O)C(C)C,,"statin-treated high-risk CHD patients, plasma","oral, 100 mg daily, day 13, 0 to 8 h, mean, detected subjects only",,Cmax,2.8 ng/mL
CCNC(=O)OCc1c(COC(=O)NCC)c(-c2ccc(OC)cc2)n2c1Cc1ccccc1-2,,"BALB/c nude mice, blood","dose not given, day 10",,LDH activity,473 ± 8 U/L
NC[C@@H](C(=O)Nc1ccc(-c2cn[nH]c2)cc1)c1ccccc1,OECD 405 eye irritation,"New Zealand White rabbit, eye","topical, 0.1%, 73 h (day 4), scale 0 to 2",direction not given,iris score,0
O=C(CCc1ccc(CNC(C(=O)O)C2CCCCC2)cn1)NO (stereo not drawn),,"healthy male humans, plasma","oral, 50 mg, single dose, geometric mean",,AUC(0-t),289 ng·h/mL
Cc1ccc(-c2ccc(-c3cc4sccc4o3)cn2)nc1,TCSPC,MeCN,,,radiative decay rate constant,0.46 ns⁻¹
CCCC[C@H](NC(=O)CNC(=O)CNC(=O)CN1CCN(CC(=O)O)CCN(CC(=O)O)CC1)C(=O)N[C@H]1CC(=O)NCCCC[C@@H](C(N)=O)NC(=O)[C@H](Cc2c[nH]c3ccccc23)NC(=O)[C@H](CCCNC(=N)N)NC(=O)[C@@H](Cc2ccccc2)NC(=O)[C@H](Cc2c[nH]cn2)NC1=O [copper-64 labelled],,"female C57 mouse, B16/F1 melanoma","intravenous, 0.037 MBq, 2 h",reference: tumour over stomach,uptake ratio,16.3
Cc1c(NC(=O)c2ccc3c(c2)CC[C@@H]2C[C@@](O)(C(F)(F)F)CC[C@@]32Cc2ccccc2)ccc[n+]1[O-],"inducer, item: CYP3A4 mRNA",cryopreserved human hepatocytes,"concentration not given, 72 h, hepatocyte",reference: rifampin 10 µM,Emax,53%
CC(C)Cn1c(SCC(=O)N2CCc3ccccc3C2)nc2cc(Cl)ccc2c1=O,,"mouse C57BL/6J male, plasma","intraperitoneal, 10 mg/kg",reference: plasma Cmax over CRFBP-CRF2 IC50,Cmax over IC50,1.7 fold
C#CCOc1ccc(/C=C2\SC(=O)N(CC(=O)NCc3ccccc3)C2=O)cc1,inverse Kirkwood-Buff integrals,binary solvent mixture,"298.15 K, mole fraction x1 0.85",,"Kirkwood-Buff integral G2,3",-359 cm³/mol
COC(=O)C(c1ccccc1Cl)N1CCC2SC(=O)C=C2C1 (stereo not drawn),LC-MS/MS,human plasma,"50 ng/mL spiked, 8 h, room temperature",,measured concentration,52.2 ± 5.1 ng/mL
CC(=O)[CH](C(C)=O)[Pt-2]1([S+](C)C)[O]C(C)=CC(C)=[O+]1 (stereo not drawn),atomic absorption spectroscopy,"rat, urine and feces","intravenous, dose not given, 24 h",reference: dose,cumulative Pt excretion,4 ± 1.6%
CCC(=O)N[C@@H](C)C(=O)OCC(=O)N[C@@H](C)C(=O)O,,water,"pH 4, 50 °C",,depolymerization half-life,281 h
COC[C@@H](CC(C)C)NC(=O)c1ccc(C)c(CO)c1,LC-MS,"Sprague-Dawley rat, both sexes, rat liver microsomes","10 µM of parent drug, 20 min, pH 7.4, with: NADPH",reference: parent drug at time zero,metabolite peak area,0.7%
[11CH3]Oc1ccc(-c2nc(CSc3nc(N)c(C#N)c(-c4ccc5c(c4)OCO5)c3C#N)cs2)cc1,PET,"male Wistar rat, brain",baseline,,whole brain uptake,0.28 ± 0.03 g/mL
c1ccc(COc2cc3nc(c2)CNCCNCCNC3)cc1,pH-potentiometric titration,,"I 0.15 M NaCl, 298 K",,sum of log K N-donors,20.6
NC(=O)[C@@H](CCCCNC(=O)CNC(=O)CCC(=O)NCCc1c[nH]cn1)NC(=O)[C@@H](CCC(=O)O)NC(=O)[C@@H](CCCCNC(=O)CNC(=O)CCC(=O)NCCc1c[nH]cn1)NC(=O)[C@@H](Cc1ccc(O)cc1)NC(=O)CN1CCN(CC(=O)O)CCN(CC(=O)O)CCN(CC(=O)O)CC1 [indium-111 labelled],SPECT,"human, CEACAM5-expressing tumours, psoas muscle","intravenous, dose not given, 24 h, with: TF2 pretargeting 150 mg",,muscle activity concentration,0.19 %ID/kg
